Experimental data from different studies.
Protocols differ between the studies behind these lines. Values joined by “and” are separate records of one study, mostly repeats; a detail may differ. Numbers after ± are the reported error. Values after ≈ are worked out from the molar mass of the structure shown.

With `O=C(O)C(Cl)Cl.OCCN(CCO)CCO` the inhibition was -48% (Solanum nigrum; herbicidal activity; 15 mg/mL, 21 days, post-emergence greenhouse).
With `C#Cc1ccc(C[C@@H]2NC(=O)CSCCNC(=O)[C@H](Cc3ccccc3)N(C)C(=O)[C@H](CC(C)C)NC(=O)[C@H](Cc3cccc4ccccc34)NC(=O)[C@H](CC(C)C)NC(=O)[C@H](C(C)C)NC(=O)[C@@H]3CCCN3C(=O)[C@H](C(C)C)NC2=O)cc1` the EC50/IC50 ratio was 44.4 (HIV-1; viral replication; MT4; relative to: cell EC50 over protease IC50).
For `COC(=O)C1=CO[C@@H](C)[C@@H]2Cn3ccc4c5ccccc5nc-4c3C[C@H]12`, the resistance index was 1.4 (Plasmodium falciparum; growth, [3H]-hypoxanthine uptake; FCR3; 96 h; relative to: FCR3 IC50 over 3D7 IC50).
`CCCCCCCCCC(=O)NCCCC[C@H](NC(=O)CCCCCCCCC)C(=O)N[C@@H](CCCCNC(=O)CCCCCCCCC)C(=O)NCC(=O)NCC(=O)NCC(=O)N[C@@H](CS)C(=O)N[C@@H](CCCNC(=N)N)C(=O)N[C@@H](CCCCN)C(=O)N1CCC[C@H]1C(=O)N[C@@H](CS)C(=O)N[C@@H](CCCNC(=N)N)C(=O)N[C@@H](CCCCN)C(=O)N1CCC[C@H]1C(N)=O`: “geometric mean MIC” 28.5 µM (Candida; twelve fungal strains).
Under “maximum germination stimulation”, `S=C=NCc1ccccc1` is recorded as 94% (Phelipanche ramosa; seed germination, stimulant; seeds; 1 µM; relative to: (±)-GR24).
The MBC of `CC[C@H](C)[C@@H]1NC(=O)[C@H](CO)NC(=O)[C@H](CCCCN)NC(=O)[C@@H]2CSSC[C@@H](C(=O)N[C@@H](Cc3ccc(O)cc3)C(N)=O)NC(=O)[C@H](CCCCN)NC(=O)[C@@H]3CSSC[C@H](NC(=O)[C@H](CCCNC(=N)N)NC(=O)[C@H](CC(C)C)NC(=O)[C@H](CC(=O)O)NC(=O)[C@H](CC(=O)O)NC(=O)[C@H](CCC(=O)O)NC(=O)[C@H](CC(N)=O)NC(=O)[C@H](Cc4c[nH]c5ccccc45)NC(=O)[C@@H]4CCCN4C(=O)CNC(=O)[C@H](CC(N)=O)NC(=O)[C@@H](NC(=O)CNC(=O)[C@H](Cc4ccccc4)NC(=O)CN)CSSC[C@H](NC(=O)[C@H](Cc4ccc(O)cc4)NC(=O)CNC(=O)CNC(=O)[C@H](CCCCN)NC(=O)[C@H](Cc4ccc(O)cc4)NC(=O)CNC(=O)[C@H](CCCCN)NC1=O)C(=O)N[C@@H](C)C(=O)N[C@@H](CCCCN)C(=O)NCC(=O)NCC(=O)N[C@@H](Cc1ccccc1)C(=O)N[C@@H](C(C)C)C(=O)N3)C(=O)N[C@@H](Cc1c[nH]cn1)C(=O)N[C@@H](CC(N)=O)C(=O)N[C@@H](Cc1c[nH]cn1)C(=O)N2` is reported as 0.06 µM (Streptococcus pneumoniae; BS-441; 24 h, 37 °C, 99.9% killing).
With `COc1ccc(C2=[N+]([O-])c3ccccc3N3CCN=C23)cc1` the MIC50 was 0.25 µg/mL (≈ 0.852 µM) (Clostridioides difficile; microbial growth).
`CCN1CCN(Cc2ccc(CNc3nc(N(C)C)nc(N(C)C)c3/N=N/c3ccc(Cl)cc3)cc2)CC1` gave a mortality of 86.7 ± 5.8% (Ostrinia furnacalis; leaf dipping; 200 mg/L, 96 h).
`Cc1cc(C(=O)Nc2nc3cccc(C)c3n2[C@H]2CCCCN(C(=O)/C=C/CN(C)C)C2)ccn1` gave a survival of 106% and 95% and 79.8% and 95.7% and 85.8% and 95.1% (Trypanosoma brucei brucei; 2T1 CLK1 C215S overexpressing; 0.00013 µM, 72 h).
`CC(C)[C@@H](N)C(=O)N[C@H](CO)C(=O)N[C@H](Cc1c[nH]c2ccccc12)C(=O)N[C@@H](CO)C(=O)N[C@H](C)C(=O)N[C@@H](C(=O)N[C@@H](Cc1ccccc1)C(=O)O)C(C)C` has an MIC90 of greater than 100 µM (Mycobacterium marinum).
For `CN(C)c1nc(NCc2ccc(-c3ccccc3)cc2)c(/N=N/c2ccc(Cl)cc2)c(N(C)C)n1`, the mortality was 100% (Ostrinia furnacalis; leaf dipping; 500 mg/L, 96 h).
`CCOC(=O)C1(Cc2ccccc2)Oc2cc(C)ccc2N(Cc2ccccc2)C1=O` (centres unmarked) gave an inhibition of 32.8 ± 2.09% (Setaria viridis; fresh weight, greenhouse postemergence; postemergence, 150 g ai/ha, 21 days).
`CC[C@H](C)[C@H](NC(=O)[C@H](Cc1ccccc1)NC(=O)[C@H](CCCCN)NC(=O)[C@H](CCCCN)NC(=O)CNC(=O)[C@H](C)NC(=O)[C@H](CC(N)=O)NC(=O)[C@H](CCCCN)NC(=O)[C@H](Cc1ccccc1)NC(=O)[C@H](CC(N)=O)NC(=O)[C@H](CCC(=O)O)NC(=O)[C@H](Cc1c[nH]c2ccccc12)NC(=O)[C@H](CC(C)C)NC(=O)[C@@H](N)CO)C(=O)N[C@@H](CC(C)C)C(=O)N[C@@H](CC(N)=O)C(=O)N[C@H](C(=O)N[C@@H](CC(C)C)C(=O)N[C@@H](CC(=O)O)C(=O)N[C@@H](CCCCN)C(N)=O)[C@@H](C)CC`: “geometric mean MIC” 8 µM (Gram-negative bacteria).
`COc1ccc(C2=[N+]([O-])c3ccccc3N3CCCN=C23)cc1` has an MIC50 of 4 µg/mL (≈ 13 µM) (Clostridioides difficile; microbial growth).
`COc1ccc(Nc2ncnc3ccc(-c4ccc(S(=O)(=O)N5CCOCC5)cc4)cc23)cc1Cl` gave an inhibition of 43% (Trypanosoma cruzi; intracellular amastigote growth, β-galactosidase CPRG; 3T3, Tulahuen, β-galactosidase-expressing; 10 µM, 96 h).
The inhibition of `CC(O)CN(CC(C)O)CC(C)O.O=C(O)C(Cl)Cl` (centres unmarked) is reported as 0% (Chenopodium album; herbicidal activity; 15 mg/mL, 21 days, pre-emergence greenhouse).
`CC[C@H](C)[C@H](NC(=O)[C@H](CCCCN)NC(=O)[C@H](CCCCN)NC(=O)[C@H](Cc1ccccc1)NC(=O)[C@H](Cc1ccccc1)NC(=O)[C@H](CCCCN)NC(=O)[C@H](CCCCN)NC(=O)[C@H](Cc1ccccc1)NC(=O)[C@H](CCCNC(=N)N)NC(=O)[C@@H](N)CCCCN)C(=O)N[C@@H](CCCCN)C(=O)N[C@@H](CCCCN)C(=O)N[C@@H](CO)C(=O)N[C@H](C(=O)N[C@@H](CCCCN)C(=O)N[C@@H](CCCCN)C(=O)N[C@@H](CCCNC(=N)N)C(=O)N[C@H](C(=O)N[C@@H](CCCCN)C(=O)N[C@@H](CCCCN)C(=O)N[C@@H](CC(C)C)C(=O)N[C@@H](Cc1ccccc1)C(=O)N[C@@H](CCCCN)C(=O)N[C@@H](CCCCN)C(=O)N1CCC[C@H]1C(=O)N[C@@H](CCCNC(=N)N)C(=O)N[C@H](C(=O)N[C@H](C(=O)N1CCC[C@H]1C(=O)N[C@H](C(=O)N[C@@H](CO)C(=O)N[C@H](C(=O)N1CCC[C@H]1C(=O)N[C@@H](Cc1ccccc1)C(=O)O)[C@@H](C)CC)[C@@H](C)CC)[C@@H](C)CC)C(C)C)C(C)C)C(C)C` has an MBC of 16 µg/mL (Escherichia coli; E23 clinical isolate; 20 h).
`CCOC(=O)C1(Cc2ccccc2C#N)Oc2cc(F)ccc2N(Cc2ccccc2C#N)C1=O` (centres unmarked) gave an inhibition of 46.39 ± 0.42% (Setaria viridis; fresh weight, greenhouse postemergence; postemergence, 150 g ai/ha, 21 days).
For `CC(C)[C@H]1NC(=O)[C@H](Cc2ccccc2)NC(=O)[C@@H](C(C)C)NC(=O)[C@@H](C)NC(=O)[C@H](CO)NC(=O)[C@@H](Cc2c(-c3ccc(-c4ccccc4)c4ccccc34)[nH]c3ccccc23)NC(=O)[C@@H](CO)NC1=O`, the MIC90 was greater than 100 µM (Mycobacterium marinum).
`FC(F)(F)c1cccc(CNc2nc(NC3CCN(Cc4ccccc4)CC3)c3nc[nH]c3n2)c1`: “mRNA fold change” 1.29 (Cryptococcus neoformans; RNA-seq, item: CNAG_05316; 48 µg/mL, 3 h; relative to: untreated).

Some of these lines once more:
The MBC of `CC[C@H](C)[C@@H]1NC(=O)[C@H](CO)NC(=O)[C@H](CCCCN)NC(=O)[C@@H]2CSSC[C@@H](C(=O)N[C@@H](Cc3ccc(O)cc3)C(N)=O)NC(=O)[C@H](CCCCN)NC(=O)[C@@H]3CSSC[C@H](NC(=O)[C@H](CCCNC(=N)N)NC(=O)[C@H](CC(C)C)NC(=O)[C@H](CC(=O)O)NC(=O)[C@H](CC(=O)O)NC(=O)[C@H](CCC(=O)O)NC(=O)[C@H](CC(N)=O)NC(=O)[C@H](Cc4c[nH]c5ccccc45)NC(=O)[C@@H]4CCCN4C(=O)CNC(=O)[C@H](CC(N)=O)NC(=O)[C@@H](NC(=O)CNC(=O)[C@H](Cc4ccccc4)NC(=O)CN)CSSC[C@H](NC(=O)[C@H](Cc4ccc(O)cc4)NC(=O)CNC(=O)CNC(=O)[C@H](CCCCN)NC(=O)[C@H](Cc4ccc(O)cc4)NC(=O)CNC(=O)[C@H](CCCCN)NC1=O)C(=O)N[C@@H](C)C(=O)N[C@@H](CCCCN)C(=O)NCC(=O)NCC(=O)N[C@@H](Cc1ccccc1)C(=O)N[C@@H](C(C)C)C(=O)N3)C(=O)N[C@@H](Cc1c[nH]cn1)C(=O)N[C@@H](CC(N)=O)C(=O)N[C@@H](Cc1c[nH]cn1)C(=O)N2` is reported as 0.06 µM (Streptococcus pneumoniae; BS-441; 24 h, 37 °C, 99.9% killing).
With `COc1ccc(C2=[N+]([O-])c3ccccc3N3CCN=C23)cc1` the MIC50 was 0.25 µg/mL (≈ 0.852 µM) (Clostridioides difficile; microbial growth).
`CCN1CCN(Cc2ccc(CNc3nc(N(C)C)nc(N(C)C)c3/N=N/c3ccc(Cl)cc3)cc2)CC1` gave a mortality of 86.7 ± 5.8% (Ostrinia furnacalis; leaf dipping; 200 mg/L, 96 h).
